Experimental data gathered from unrelated publications.
Each line is one published result; not all experiments were run side by side. ± marks the error that the study gave.

SMILES | test | system | setting | how to read | endpoint | value
CCOP(=O)(OCC)OCCCCOC(=O)CC1=C(C)/C(=C/c2ccc([S+](C)[O-])cc2)c2ccc(F)cc21 (stereo not drawn) | – | rat, blood | topical, 50 mg/kg, PSH vehicle | – | Tmax | 4 h
CC[C@H](C)C(=O)N1CCC(NC(=O)Nc2ccc(OC(F)(F)F)c(F)c2)CC1 | – | healthy volunteers, both sexes | oral, 8 mg single dose, fed state | – | participants with any Moderate TEAE | 0%
CNC(=O)Oc1cc(C)c([S+](C)[O-])c(C)c1 (stereo not drawn) | – | human liver cytosol | 1 µM, 30 min, 1 mg/mL protein | – | percent metabolized | 20.7%
CC[C@H](C)[C@H](NC(=O)[C@H](CC(=O)O)NC(=O)[C@H](CO)NC(=O)[C@H](CCC(N)=O)NC(=O)[C@H](C)NC(=O)[C@H](CC(=O)O)NC(=O)[C@H](CCC(=O)O)NC(=O)[C@H](Cc1c[nH]cn1)NC(=O)[C@H](Cc1ccc(O)cc1)NC(=O)[C@H](C)NC(=O)[C@H](CC(=O)O)NC(=O)[C@H](CCC(=O)O)NC(=O)[C@H](Cc1c[nH]cn1)NC(=O)[C@H](Cc1ccc(O)cc1)NC(=O)[C@H](C)NC(=O)[C@H](CC(=O)O)NC(=O)[C@H](CCC(=O)O)NC(=O)[C@H](Cc1c[nH]cn1)NC(=O)[C@H](Cc1ccc(O)cc1)NC(=O)[C@H](C)NC(=O)[C@H](CC(=O)O)NC(=O)[C@H](CCC(=O)O)NC(=O)[C@H](Cc1c[nH]cn1)NC(=O)[C@H](Cc1ccc(O)cc1)NC(=O)[C@H](C)NC(=O)[C@H](CC(=O)O)NC(=O)[C@H](CCC(=O)O)NC(=O)[C@H](Cc1c[nH]cn1)NC(=O)[C@@H](N)Cc1ccc(O)cc1)C(=O)N[C@H](C(=O)N[C@@H](C)C(=O)N[C@@H](Cc1c[nH]cn1)C(=O)N[C@@H](CC(C)C)C(=O)N[C@@H](CC(C)C)C(=O)O)C(C)C | – | mouse, SN model | dose not given | – | BUN | 19.6 ± 1.5 mg/dL
COc1cc2ncnc(Oc3cccc(N[11C](=O)Nc4cc(C(C)(C)C(F)(F)F)on4)c3)c2cc1OC | – | female Balb/c nude mice, plasma | intravenous, dose not given, 30 min | – | radioactivity | 1.5 ± 0.11 %ID/g
CCCCCCCCCCCCC(=O)O.O=C1CCCC2C3CCCN4CCCC(CN12)C34 (stereo not drawn) | shake-flask | ultrapure water | pH 7.0, 25 °C | – | log octanol-water partition coefficient | 0.49
CSCC[C@H](NC(=O)CNC(=O)[C@H](CC(=O)O)NC(=O)[C@@H](NC(=O)[C@@H](NC(=O)[C@@H](NC(=O)CNC(=O)[C@H](CCC(N)=O)NC(=O)[C@H](CCSC)NC(=O)[C@H](CC(=O)O)NC(=O)[C@H](C)NC(=O)[C@H](C)NC(=O)[C@@H](NC(=O)[C@H](CO)NC(=O)[C@@H](N)CC(C)C)[C@@H](C)O)C(C)C)C(C)C)[C@@H](C)O)C(=O)N[C@@H](C)C(=O)N[C@@H](CO)C(=O)NCC(=O)N[C@@H](CC(C)C)C(=O)N[C@@H](CC(=O)O)C(=O)N[C@@H](CCCCN)C(=O)N[C@@H](CC(=O)O)C(=O)N[C@@H](Cc1ccc(O)cc1)C(=O)N[C@@H](CC(C)C)C(=O)N[C@@H](CCCCN)C(=O)N1CCC[C@H]1C(=O)N[C@@H](CC(=O)O)C(=O)N[C@@H](CC(=O)O)C(=O)O | LC-MS/MS | patients, serum | intravenous infusion, 4.16 mg/kg | – | terminal half-life (t1/2γ) | 4.12 h
CN[C@](C)(C[18F])C(=O)O | – | SCID mouse SK-OV-3 xenograft, kidney | 120 min post injection | – | tissue uptake | 4.3 ± 0.5 %ID/g
CCCCCCCC(=O)OC[C@H](NC(=O)[C@H](CO)NC(=O)CN)C(=O)N[C@@H](Cc1ccccc1)C(=O)N[C@@H](CC(C)C)C(=O)N[C@@H](CO)C(=O)N1CCC[C@H]1C(=O)N[C@@H](CCC(=O)O)C(=O)N[C@@H](Cc1cnc[nH]1)C(=O)N[C@@H](CCC(N)=O)C(=O)N[C@@H](CCCNC(=N)N)C(=O)N[C@H](C(=O)N[C@@H](CCC(N)=O)C(=O)N[C@@H](CCC(N)=O)C(=O)N[C@@H](CCCNC(=N)N)C(=O)N[C@@H](CCCCN)C(=O)N[C@@H](CCC(=O)O)C(=O)N[C@@H](CO)C(=O)N[C@@H](CCCCN)C(=O)N[C@@H](CCCCN)C(=O)N1CCC[C@H]1C(=O)N1CCC[C@H]1C(=O)N[C@@H](C)C(=O)N[C@@H](CCCCN)C(=O)N[C@@H](CC(C)C)C(=O)N[C@@H](CCC(N)=O)C(=O)N1CCC[C@H]1C(=O)N[C@@H](CCCNC(=N)N)C(=O)O)C(C)C | – | human, plasma | intravenous infusion, 5 µg/kg/h | reference: baseline | peak concentration fold increase | 594 fold
COc1cc(NC(=O)C(=O)c2c(C)n(Cc3ccc(Cl)cc3)c3ccc(C)cc23)ccn1 | – | male cynomolgus monkey, plasma | intravenous, 1 mg/kg, mean | – | clearance | 7.97 mL/min/kg
CC[C@H](C)[C@@H]1NC(=O)[C@H](CCCNC(=N)N)NC(=O)C[C@@H](c2cccc3ccccc23)NC(=O)[C@@H]2CSSC[C@H](NC(=O)C[C@@H](c3cccc4ccccc34)NC(=O)[C@H](CCCNC(=N)N)NC(=O)[C@@H]3CCCN3C(=O)[C@@H]3CCCN3C1=O)C(=O)N[C@@H](Cc1ccccc1)C(=O)N1CCC[C@H]1C(=O)N[C@@H](CC(=O)O)C(=O)N[C@@H](CC(=O)O)C(=O)N[C@@H](Cc1ccccc1)C(=O)N2 | measured: Ki-67 | CD3+ splenic T cells, BALB/c mouse | intravenous, 6 mg/kg on days 0 and 10, 48 h ex vivo | reference: control medium | T-cell proliferation | no effect
N=C(N)NCc1ccc(C(=O)NCCCC[C@H](NC(=O)CCCCCCC(=O)NCCCC[C@H](NC(=O)N[C@@H](CCC(=O)O)C(=O)O)C(=O)O)C(=O)O)cc1[211At] | – | SCID mouse, PC-3 xenografts, lungs | 2 h | – | tissue uptake | 1.96 ± 0.26 %ID/g
CC[C@H](C)[C@@H]1NC(=O)[C@H](CCCCN)NC(=O)[C@H](CCCCN)NC(=O)[C@H](Cc2ccc(O)cc2)NC(=O)[C@H](CC(C)C)NC(=O)[C@@H]2CCCN2C(=O)[C@H](C)NC(=O)CNC(=O)CNC(=O)[C@H](CO)NC(=O)CNC(=O)CNC(=O)[C@H](CO)NC(=O)[C@H](CCC(=O)O)NC(=O)[C@H](CC(C)C)NC(=O)[C@H](CC(C)C)NC(=O)[C@H](CCCCN)NC(=O)[C@H](CCCCN)NC(=O)[C@H]([C@@H](C)CC)NC(=O)[C@H]([C@@H](C)CC)NC(=O)[C@H](CCCCN)NC(=O)[C@H](CCCCN)NC(=O)[C@H](Cc2ccc(O)cc2)NC(=O)[C@H](CC(C)C)NC(=O)[C@@H]2CCCN2C(=O)[C@H](C)NC(=O)CNC(=O)[C@@H]2CSSC[C@H](NC(=O)[C@H](CC(C)C)NC(=O)[C@H](CCCCN)NC(=O)[C@H](CCCCN)NC(=O)[C@H]([C@@H](C)CC)NC1=O)C(=O)N[C@@H](CCC(=O)O)C(=O)N[C@@H](CO)C(=O)NCC(=O)N2 | – | 25% human serum | 50 µM, 24 h | reference: 0 h control | remaining intact peptide | 58.6 ± 1.5%
C[C@H]1C(OC(=O)C(Cl)Cl)O[C@@H]2O[C@@]3(C)CC[C@H]4[C@H](C)CCC1[C@@]24OO3 (stereo partly drawn) | – | Tg(fli1:EGFP) zebrafish embryos | 50 µg/mL, up to 48 hpf | – | dead embryos | 0 count
CCN(Cc1ccccc1)C(=O)CCc1nc(CN2CCN(C(=O)Cc3ccc(OC)c(OC)c3)CC2)no1 | – | rat, brain | intravenous, 1 mg/kg, 15 min | – | concentration | 4.6 ng/g
CC(C)C[C@H](NC(=O)[C@H](CCCCN)NC(=O)[C@H](CCC(=O)O)NC(=O)[C@H](C)NC(=O)[C@@H](NC(=O)[C@H](CCCCN)NC(=O)[C@H](CC(=O)O)NC(=O)[C@H](Cc1ccc(O)cc1)NC(=O)[C@H](Cc1ccccc1)NC(=O)[C@H](C)NC(=O)[C@H](CCCCN)NC(=O)[C@H](CC(C)C)NC(=O)[C@H](Cc1c[nH]c2ccccc12)NC(=O)[C@@H](N)CC(=O)O)C(C)C)C(=O)N[C@@H](CCCCN)C(=O)N[C@@H](CCC(=O)O)C(=O)N[C@@H](C)C(=O)N[C@@H](Cc1ccccc1)C(=O)N1CCC[C@H]1C(=O)N[C@@H](CC(=O)O)C(=O)N[C@@H](Cc1c[nH]c2ccccc12)C(=O)N[C@@H](C)C(=O)N[C@@H](CCCCN)C(=O)N[C@@H](C)C(=O)N[C@@H](C)C(=O)N[C@@H](Cc1ccc(O)cc1)C(=O)N[C@@H](CC(=O)O)C(=O)N[C@@H](CCCCN)C(=O)N[C@@H](C)C(=O)N[C@@H](C)C(=O)N[C@@H](CCC(=O)O)C(=O)N[C@@H](CCCCN)C(=O)N[C@@H](C)C(=O)N[C@@H](CCCCN)C(=O)N[C@@H](CCC(=O)O)C(=O)N[C@@H](C)C(=O)N[C@@H](C)C(=O)O | – | cynomolgus monkey female, plasma | intravenous infusion, 8 mg/kg every other day, day 27 | – | Tmax | 0 h
CC[C@H](C)[C@H](NC(=O)[C@H](Cc1ccccc1)NC(=O)[C@H](CC(=O)O)NC(=O)[C@H](CCN)NC(=O)[C@H](Cc1ccccc1)NC(=O)[C@H](Cc1ccccc1)NC(=O)[C@H](CCCCN)NC(=O)[C@H](CN)NC(=O)[C@H](CC(C)C)NC(=O)[C@H](CCCNC(=N)N)NC(=O)[C@H](CCSC)NC(=O)[C@H](C)N)C(=O)N[C@@H](CC(C)C)C(=O)N[C@@H](CCC(N)=O)C(=O)N[C@@H](CCCNC(=N)N)C(=O)N[C@@H](CCCCN)C(=O)N[C@@H](CCCCN)C(=O)O | circular dichroism | 20% TFE in PBS | 200 µM, pH 7.4, 25 °C | – | helicity | 17.4%
CCC(CC)OC1C=C(C(=O)OC(C)OC(=O)C(N)C(C)C)CC(NC(=N)N)C1NC(C)=O (mixture of isomers) | – | mouse (fed) | oral, 10 mg/kg | reference: 1 mg/kg intravenous | oral bioavailability | 23%
C[C@H]1N=C(c2ccccc2F)c2cc(Br)ccc2-n2cnc(C(=O)OC3O[C@H](C(=O)O)[C@@H](O)[C@H](O)[C@H]3O)c21 (stereo partly drawn) | – | mouse liver S9 | – | – | glucuronide half-life | ≥ 8 h
CN(C)C(CNC(=O)Nc1cc(C(F)(F)F)ccc1N1CCOCC1)c1ccncc1 (stereo not drawn) | – | mouse, serum | intraperitoneal, 120 mg/kg single dose | – | serum GGT | < 3 U/L
CC[C@H](C)[C@H](NC(=O)[C@H](Cc1ccccc1)NC(=O)[C@@H]1CCCN1C(=O)[C@H](CCCCN)NC(=O)[C@H](CCCCN)NC(=O)[C@H](Cc1ccccc1)NC(=O)[C@H](Cc1ccccc1)NC(=O)[C@@H](C)NC(=O)[C@@H](N)Cc1ccc(O)cc1)C(=O)N[C@@H](CC(C)C)C(=O)O | – | anesthetized rat | intrathecal, 10 nmol/rat, 1 to 5 min | – | maximum mean arterial pressure | 97 ± 8 mmHg

For quick reference, copied from above:
SMILES | test | system | setting | how to read | endpoint | value
CN[C@](C)(C[18F])C(=O)O | – | SCID mouse SK-OV-3 xenograft, kidney | 120 min post injection | – | tissue uptake | 4.3 ± 0.5 %ID/g
CC(C)C[C@H](NC(=O)[C@H](CCCCN)NC(=O)[C@H](CCC(=O)O)NC(=O)[C@H](C)NC(=O)[C@@H](NC(=O)[C@H](CCCCN)NC(=O)[C@H](CC(=O)O)NC(=O)[C@H](Cc1ccc(O)cc1)NC(=O)[C@H](Cc1ccccc1)NC(=O)[C@H](C)NC(=O)[C@H](CCCCN)NC(=O)[C@H](CC(C)C)NC(=O)[C@H](Cc1c[nH]c2ccccc12)NC(=O)[C@@H](N)CC(=O)O)C(C)C)C(=O)N[C@@H](CCCCN)C(=O)N[C@@H](CCC(=O)O)C(=O)N[C@@H](C)C(=O)N[C@@H](Cc1ccccc1)C(=O)N1CCC[C@H]1C(=O)N[C@@H](CC(=O)O)C(=O)N[C@@H](Cc1c[nH]c2ccccc12)C(=O)N[C@@H](C)C(=O)N[C@@H](CCCCN)C(=O)N[C@@H](C)C(=O)N[C@@H](C)C(=O)N[C@@H](Cc1ccc(O)cc1)C(=O)N[C@@H](CC(=O)O)C(=O)N[C@@H](CCCCN)C(=O)N[C@@H](C)C(=O)N[C@@H](C)C(=O)N[C@@H](CCC(=O)O)C(=O)N[C@@H](CCCCN)C(=O)N[C@@H](C)C(=O)N[C@@H](CCCCN)C(=O)N[C@@H](CCC(=O)O)C(=O)N[C@@H](C)C(=O)N[C@@H](C)C(=O)O | – | cynomolgus monkey female, plasma | intravenous infusion, 8 mg/kg every other day, day 27 | – | Tmax | 0 h
CCOP(=O)(OCC)OCCCCOC(=O)CC1=C(C)/C(=C/c2ccc([S+](C)[O-])cc2)c2ccc(F)cc21 (stereo not drawn) | – | rat, blood | topical, 50 mg/kg, PSH vehicle | – | Tmax | 4 h
